Measurements of several laboratories.
pEC50: −log10 of the molar value.
Organism: Schistosoma mansoni

CC1(C)NC(=O)N(c2ccc(F)c(Br)c2)C1=O
worm burden reduction (juvenile, infected mice; oral, 100 mg/kg single dose): 29%

CC1=C(Cn2cc(CN3CCNCC3)nn2)C(=O)c2ccccc2C1=O
killing (adult worms; 25 µM, 48 h): 48.5%

Fc1cc(F)c(-c2c(Cl)nc(-c3cccs3)nc2N2CCCOCC2)c(F)c1
pEC50 (worm motility; adult worms ex vivo; 24 h): 6.04

CN1CCCN(c2ncc(-c3ccc4nncc(Nc5cnccn5)c4c3)cn2)CC1
phenotypic severity score (adult worms; 10 µM, 48 h; direction not given): 0

CC1=C(Cn2cc(CO)nn2)C(=O)c2ccccc2C1=O
killing (adult worms; 10 µM, 48 h): 39.8%

COc1ccc(Nc2cnnc3cc(-c4ccc(S(=O)(=O)N5CCN(C)CC5)cc4)ccc23)cc1Cl
phenotypic severity score (adult worms; 10 µM, 24 h; direction not given): 4

COc1cc(F)c(-c2c(Cl)nc(-c3cccs3)nc2NCC2(C)COC2)c(F)c1
pEC50 (motility; adult worms, ex vivo; 24 h): 7.42

CN1CCN(c2ncc(-c3ccc4nncc(Nc5ncccn5)c4c3)cn2)CC1
phenotypic severity score (adult worms; 10 µM, 48 h; direction not given): 1

Fc1cc(F)c(-c2c(Cl)nc(-c3cccs3)nc2NCc2cccnc2)c(F)c1
pEC50 (worm motility; adult worms ex vivo; 24 h): 5.34

CC1=C(Cn2cc(C(C)(C)O)nn2)C(=O)c2ccccc2C1=O
killing (adult worms; 10 µM, 48 h): 40.8%

For quick reference, copied from above:
CC1=C(Cn2cc(CN3CCNCC3)nn2)C(=O)c2ccccc2C1=O
killing (adult worms; 25 µM, 48 h): 48.5%
